Published values from different studies.
Numbered parts are unrelated; each lists some results of a single study.

Study 1 — technique: protein binding microarray; molecule type: double-stranded DNA, one strand shown; sample: in vitro; tested at: not given; relative to: not given; direction: higher = stronger binding
Target: Histone acetyltransferase KAT6A, winged helix 2, GST fusion (KAT6A, Homo sapiens, UniProt Q92794, residues 85-181)
Notes: 8-mer, flanks averaged, mean of 2 arrays, mostly near background
Residues (chain): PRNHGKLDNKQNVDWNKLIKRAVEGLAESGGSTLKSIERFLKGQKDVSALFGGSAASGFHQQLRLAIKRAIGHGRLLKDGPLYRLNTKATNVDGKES
Sequence	E-score
ACAACTAG	-0.194
CAGGTCAG	-0.0348
CGACACGC	0.0742
AGCAGCGG	0.122
AGTATCAC	-0.104
ATCTACTG	-0.0302

Study 2 — technique: protein-binding microarray; molecule type: double-stranded DNA, one strand shown; sample: in vitro; tested at: not given; direction: higher = stronger binding
Target: Hepatocyte nuclear factor 3-beta, forkhead domain (FOXA2, Homo sapiens, UniProt Q9Y261, residues 142-269)
Notes: k-mer, scored over probes, only values ≥0.25
Residues (chain): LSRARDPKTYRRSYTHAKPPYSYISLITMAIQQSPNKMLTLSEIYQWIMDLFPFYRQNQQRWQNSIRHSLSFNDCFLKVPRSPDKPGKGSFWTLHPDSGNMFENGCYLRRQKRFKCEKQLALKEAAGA
Sequence	E-score
AAATGGCA	0.274
ATGTAACA	0.359
CAATATAG	0.308
AATATCAG	0.3

Study 3 — technique: protein-binding microarray; molecule type: double-stranded DNA, one strand shown; sample: in vitro; tested at: 2200 nM top; notes: 60-bp whole probe; with: salmon DNA 0.4 mg/ml; relative to: random background probes; direction: higher = stronger binding
Target: Interferon regulatory factor 7, full length, phosphomimetic (IRF7, Homo sapiens, UniProt Q92985, residues 1-503, S471D/S472D/S475D/S476D/S477D/S483D/S484D/S487D)
Shared flanks, not repeated: GCCTAGCAC … GTGCTAGGTCTTGATTCGCTTGACGCTGCTG
Target sequence (chain): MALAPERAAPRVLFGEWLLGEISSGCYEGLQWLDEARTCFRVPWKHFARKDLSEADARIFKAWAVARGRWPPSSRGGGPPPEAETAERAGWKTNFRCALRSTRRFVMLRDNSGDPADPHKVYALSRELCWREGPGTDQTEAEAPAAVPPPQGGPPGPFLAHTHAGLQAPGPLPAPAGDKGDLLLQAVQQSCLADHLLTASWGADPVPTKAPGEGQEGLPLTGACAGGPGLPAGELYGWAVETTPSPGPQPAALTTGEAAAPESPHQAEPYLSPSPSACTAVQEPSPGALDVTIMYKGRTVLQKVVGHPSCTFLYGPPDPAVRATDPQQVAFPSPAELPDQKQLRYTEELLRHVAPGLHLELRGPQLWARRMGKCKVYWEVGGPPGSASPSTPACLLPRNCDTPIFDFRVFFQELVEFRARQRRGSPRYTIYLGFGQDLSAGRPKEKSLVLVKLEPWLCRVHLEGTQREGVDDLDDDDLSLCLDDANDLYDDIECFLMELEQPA
Sequence	fitted relative affinity [z-score]
TCAAATATCTTTGTTGAACT	-0.126
TTAGGACTGCTCCTGCTTTA	-0.232
TCAATGATTGGTTGAACACT	0.192
GACGGTTTCCTACTGCCGAC	2.05
GACGAACTGAGACTGGAGAG	-0.524
GGGCCCATCATTCCGACCCT	-0.801
GACGATTTCAGACTTGAGAC	0.373

Further values, each from its own experiment
Substance	target	test	test system	conditions	how to read	measurement	result
PhoQ, residues 284 288 289 292 302 303 SSYNSA	PhoP, residues 12 14 15 18 19 HEGLL (Escherichia coli, UniProt P23836)	Sort-seq, item: YFP reporter	E. coli	PhoQ-PhoP variant library, with: 10 µM Mg2+	relative to: high Mg2+ state, higher = stronger signaling	fold induction	1

For quick reference, copied from above (study 1):
Sequence	E-score
CAGGTCAG	-0.0348
CGACACGC	0.0742
